Published values of several laboratories.
Every numbered part comes from another study and shows a few of its results, in no order.

Study 1
Target: Prothrombin, mature alpha-thrombin (F2, Homo sapiens, UniProt P00734)
Method: aptamer microarray, sandwich
Form: DNA with 2'F-ANA
Medium: in vitro
Concentration: 200 nM
Notes: whole 15-mer aptamer, many near background
With: Cy3 exosite-II aptamer, 400 nM
Reading: higher = stronger binding
Endpoint: mean fluorescence intensity
Strand: GGTTGGTGTGGTTGG
2'F-ANA at 2 4 5 6 7 9 13 14 15: 71.3 a.u.
2'F-ANA at 1 2 3 4 7 8 12 13 14: 93.6 a.u.
2'F-ANA at 3 4 5 7 8 10 12 13 15: 52.2 a.u.
2'F-ANA at 2 3 5 8 10 11 13 14: 49.3 a.u.
2'F-ANA at 5 7 8 10 11 12 13 14 15: 51.5 a.u.
2'F-ANA at 1 2 3 5 6 8 9 10 12 13 14 15: 52.1 a.u.
2'F-ANA at 5 6 7 8 10 11 13 14 15: 46.1 a.u.
2'F-ANA at 1 2 3 6 7 9 11 13 15: 127 a.u.
2'F-ANA at 2 4 5 13 15: 52.4 a.u.
2'F-ANA at 6 7 8 12 14 15: 349 a.u.
2'F-ANA at 2 4 5 6 7 8 15: 87.1 a.u.
2'F-ANA at 3 4 5 6 8 9 11 14 15: 50.6 a.u.
2'F-ANA at 3 5 6 8 11 13 14 15: 54.1 a.u.
2'F-ANA at 3 5 6 7 9 10 11 13: 51.8 a.u.
2'F-ANA at 1 4 6 7 8 9 10 12 13 15: 66.6 a.u.
2'F-ANA at 1 2 3 4 9 10 11 12 13 14: 53.6 a.u.
2'F-ANA at 2 3 4 5 7 9 10 11 13 14: 51.7 a.u.
2'F-ANA at 1 4 5 8 10 12: 50.8 a.u.
2'F-ANA at 3 5 6 7 9 10 13 15: 49.6 a.u.
2'F-ANA at 2 5 6 10 12 14 15: 50.5 a.u.
2'F-ANA at 1 3 4 7 8 11 12 13 14: 90.2 a.u.
2'F-ANA at 2 4 6 10 11 13 14: 115 a.u.
2'F-ANA at 2 3 5 7 9 10 11 13: 54.7 a.u.

Study 2
Target: RNA binding protein fox-1 homolog 2, RRM domain, GST-SBP tag (RBFOX2, Homo sapiens, UniProt O43251-10, residues 100-194)
Method: RNA Bind-n-Seq
Form: RNA
Medium: in vitro
Concentration: 365 nM
Notes: natural RNA segment, single round, ends assumed
Reference: no-protein control
Reading: higher = stronger binding
Endpoint: RBNS enrichment (R)
Constant ends, left off below: GGGAGUUCUACAGUCCGACGAUC … UGGAAUUCUCGGGUGCCAA
Construct (chain): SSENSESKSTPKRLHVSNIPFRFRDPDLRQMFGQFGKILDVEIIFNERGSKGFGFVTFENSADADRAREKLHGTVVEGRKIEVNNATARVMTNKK
GCAAAAAAUGUGUUUCAGUUGUACUGUAACCAAAAAUUCUGUCAAUAAAAUAUUUGAGGUUUUCCUGGCUUUGAAGAGUUUAUUUUCUUUUGCGUCUGUCUGUCCCACAC: 0.359
GUGCAAAUGUUAAGUUGGAUAUCACACUGUAUAUUUGCUGAGUCUCUUUUCCUAUAGGUUUGCAGAGCAUGUCUGCAGUUUCUCGGUUGUUAUAGAUUUCCUACCUAACC: 2.95
CUAGCAAGGACUAAAGAAUUUUAUAUCAAAAUUCUCCAGGCAUGUACCAGUUCGGGUUAAUAAAAUGAUGCCACUUGUGUCUUUUGUUCUUAAGCAGGGAAGAUAAGAGA: 0.816
CCUCCCCCAUCGCCUCUUUCUCAUCCCUGAUUAACAGUGAAGUUUGAGUCUUGUCGUGAGUCCUACAGUGAGCACAGGCAGCUGGGGCUAAUAAAAAAAGAAGAAGAAGA: 0.311
AACAAUCUUCAAGAGCCCUGUAAGGUUAAUGCCGAUAAAAUGACUGACUCCGCCCUUCUUCCUUAGUACGUAGUAUCCAGCAAGCAUUUGCCCCACCUUGUCUUGUUGAU: 0.774
AAUAAUGAAGAAAAGAAGGACAGACGCAAGGAAGAAAAGGAAUAAUAAAUAUGAAGUAAGAUUACAACAGAGCAGAACUUGCACCCACCAUUUUUUUUACCUGAUUUUUG: 0.465
UCUUGUGUCAUGUGUAGGCUGUAAUAUGUGUACAUUGUGUUUAAGAGAAAAAUGAAACCCACAUGCCGCCAUUUUCCUGAAUCAAAUUCUGCAGUGGAAUGGAGAGGAAA: 0.254
UACCCUCCCCUUGUACUAAGAGCACAAGACACAGGACUCACAGAUUGCUUGUUCUCCCCUAUAAAGUAGUAGGCUCCACACUUGUUUUUGUGGUAAACAGGAGCAGUCAC: 0.298
AUUCUUUGUAAAUGUCCACACCCUACCGCAAAGUCUGGGGAGUCUUCUGGCUGGAAUGCUGUUCACGUCUGCAUCCAGCCCUGGGAUCGGCCUUCGUGUAUGGUUUCACC: 0.383
CUAUGUGACUUGCGCUUAAUCCAAUAUUUUGCCUUUUUUCUAUAUCAAAAAACCUUUACAGUUAGCAGGGAUGUUCCUUACCAAGGAUUUUUAGCCCCAAAUCUCUCAUA: 0.912
UCAAAACUUCCCACCCGACUAAAUUACCAGCAGAUAAACACUCUUCUGUGUGAGUAAACCGAGAGUUACCAUGUGGCCUCCUUGUGUCUAAAUGUUCCCUCUGUUCAGCU: 0.166
GGAACUGGGCUGGCGCUUGGAUCUGGGGUGGGAGUAACAGGGCAGAAAUGAUUAAAAUGUUUGAGCAAACUUGCCGUGCAUGUGUGAAGUGAAAUGAAGAACAUCCGCUC: 24.5

Study 3
Target: TAR DNA-binding protein 43, full length, His tag (TARDBP, Homo sapiens, UniProt Q13148, residues 1-414)
Method: RNA Bind-n-Seq
Form: RNA
Medium: in vitro
Concentration: 20 nM
Notes: 6-mer, flanks averaged, single round
With: 150 mM KCl
Reference: input library
Reading: higher = stronger binding
Endpoint: 6-mer enrichment (R)
AAAGAA: 0.743
UGAGGG: 4.04
CCUACC: 0.609
GAGGGU: 4.45
CCAGCU: 0.652
AUUCGC: 0.588
CGCAUU: 0.618
GACGAU: 0.824
AACCAU: 0.61
CUAGUG: 0.895
ACACUC: 0.606
AUCCGC: 0.624
UCAUUU: 0.602
CGGGUC: 1.8
ACUCAU: 0.576
AUAAGA: 0.828
GUAAGA: 0.933
CCUAAA: 0.605
UAGUCA: 0.594
UGCUAU: 0.634
GUCCGU: 0.786

Further values, each from its own experiment
PhoQ, residues 284 288 289 292 302 303 SLSVQF
fold induction (PhoP, residues 12 14 15 18 19 GHCSL (Escherichia coli, UniProt P23836); Sort-seq, refers to: YFP reporter; E. coli; PhoQ-PhoP variant library, with: 10 µM Mg2+; reference: high Mg2+ state, higher = stronger signaling): 14.6

Repeated from above (study 1):
2'F-ANA at 1 2 3 5 6 8 9 10 12 13 14 15: 52.1 a.u.
2'F-ANA at 5 6 7 8 10 11 13 14 15: 46.1 a.u.
2'F-ANA at 1 2 3 6 7 9 11 13 15: 127 a.u.
2'F-ANA at 2 4 5 13 15: 52.4 a.u.
2'F-ANA at 6 7 8 12 14 15: 349 a.u.
2'F-ANA at 2 4 5 6 7 8 15: 87.1 a.u.
